Published values of several laboratories.
Parts stem from different laboratories: compare values within a part only.

Set 1 — technique: competition protein-binding microarray; molecule type: double-stranded DNA, one strand shown; sample: in vitro; concentration: 2 µM; together with: Cbf1 competitor, 0.05 µM; reading: higher = stronger binding; constant ends, left off below: … GTCTTGATTCGCTTGACGCTGCTG
Target: Phosphate system positive regulatory protein PHO4, full length, GST-tagged (PHO4, Saccharomyces cerevisiae, UniProt P07270, residues 1-312)
Setting: whole 60-bp probe, lowest competitor level
Residues (chain): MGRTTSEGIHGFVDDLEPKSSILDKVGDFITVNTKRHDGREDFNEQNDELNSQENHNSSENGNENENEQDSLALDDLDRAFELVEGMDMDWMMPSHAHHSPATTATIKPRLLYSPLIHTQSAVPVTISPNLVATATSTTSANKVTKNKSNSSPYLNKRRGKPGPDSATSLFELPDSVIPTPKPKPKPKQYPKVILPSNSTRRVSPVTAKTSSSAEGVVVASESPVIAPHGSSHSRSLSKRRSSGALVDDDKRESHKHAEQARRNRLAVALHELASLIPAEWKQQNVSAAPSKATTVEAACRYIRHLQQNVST
Sequence	fluorescence intensity
CGTCCTAGTGATTGGCTAGTGGGTGCCATGAGGAAG	5870 a.u.
CTTCTGTAAATTTGTCACCCAACTTGACGCGCCCCG	3110 a.u.
CGGGGTTAAGTTTGTGACGTGGGTGGCTTGCAGCAG	6090 a.u.
CGGGGTTAAGTTTGGATTGTGGGTGGCTTGCAGCAG	4440 a.u.
CGGGGTTAAGTTTTTCACGTGATTTGCTTGCAGCAG	10400 a.u.
GTCTTGTCTCATTGTCACTACACTTTCCCCACTTCA	4050 a.u.
CGTCCTAGTGATTTTCACGTGCCGTCCATGAGGAAG	15100 a.u.
TTTGGTCTTCGATCCCACGTGGCCAACAATATCTTC	17000 a.u.
CTATTGGTATATGTGTCCGTGACAAAGTAGTTAGTG	5740 a.u.
CTTTCCCGATCTTTTCACGTGGGGTTAGCACATTTG	16600 a.u.
AGCAGCAGAGTCATCTTCGTGCTAAACAGTTGGTAC	7010 a.u.

Set 2 — technique: RNAcompete; molecule type: RNA; sample: in vitro; concentration: 20 nM; setting: 7-mer, probes averaged, single round; baseline: mean of 7-mers; reading: higher = stronger binding
Target: PABPC1L2, full length, GST fusion (mouse, UniProt A0ABA7IW68)
Construct (chain): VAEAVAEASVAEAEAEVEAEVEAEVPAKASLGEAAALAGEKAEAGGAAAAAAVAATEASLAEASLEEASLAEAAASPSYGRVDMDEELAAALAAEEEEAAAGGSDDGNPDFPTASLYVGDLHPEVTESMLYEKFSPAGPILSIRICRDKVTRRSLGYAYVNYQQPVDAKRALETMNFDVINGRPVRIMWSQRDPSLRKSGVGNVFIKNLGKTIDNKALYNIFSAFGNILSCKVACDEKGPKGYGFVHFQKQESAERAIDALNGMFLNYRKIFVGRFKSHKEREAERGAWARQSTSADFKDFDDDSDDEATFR
Sequence	7-mer Z-score
UUAGGCG	-0.0174
GUGCUUG	-0.115
CUCUGGC	-0.24
UACGAGG	0.0334
GUGUGUC	-0.26
AGGUACA	0.0605
CACAGAC	-0.0228
GGUAUCA	-0.0554
CCGAGCA	-0.104
CCCAAGG	0.017
GAUAUCC	-0.282
CCCAAGA	-0.148
GGUGGGA	0.242
GAUCCGU	-0.311
UAGCAGA	-0.0482
CUCAGUA	-0.173
CUAGAAA	1.84
UCCAGGU	-0.324
CCACCCU	-0.237
GCAUGUC	-0.104
UCCUAAC	-0.351
CUUGAGG	-0.157
GGUCAGU	-0.106

Set 3 — technique: protein binding microarray; molecule type: double-stranded DNA, one strand shown; sample: in vitro; concentration: not given; baseline: not given; reading: higher = stronger binding
Target: Histone acetyltransferase KAT6A, winged helix 1, GST fusion (KAT6A, Homo sapiens, UniProt Q92794, residues 1-85)
Setting: 8-mer, flanks averaged, mean of 2 arrays, mostly near background
Target sequence (chain): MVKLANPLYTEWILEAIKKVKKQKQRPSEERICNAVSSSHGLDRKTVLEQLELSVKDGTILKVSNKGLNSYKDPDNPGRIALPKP
Sequence	E-score
CCGGGCCC	0.304
AAGACCTA	-0.0849
AGGTCCGC	0.224
AAAGCCCT	-0.104
GGCCCAAC	-0.112
GGGGCAAA	0.102
GTGTGAGA	-0.081
ACTCTTGG	-0.238
AAACAACC	-0.169
CAGACCCG	0.343
GATGGGTA	-0.131
AGCTCCTC	-0.259
GGCAACCC	0.159
GGGTGCCA	-0.0336
CCGTTCGA	0.029
ATCATTGC	-0.1
AATGTCTC	0.0556
AGGTTGGC	-0.168
CTCTGGCC	-0.136
CCCTGGGC	-0.106
ATGATTCG	-0.00186
ACGTGAGG	-0.178
ATCCCAAC	-0.15
AATCCGTC	0.171
TAATCCCA	-0.2

Set 4 — technique: universal PBM; molecule type: double-stranded DNA, one strand shown; sample: in vitro; concentration: 600 nM; reading: higher = stronger binding
Target: Sal-like protein 4, full length isoform A (SALL4, Homo sapiens, UniProt Q9UJQ4, residues 1-1053)
Chain of UniProt Q9UJQ4 (whole entry, looked up): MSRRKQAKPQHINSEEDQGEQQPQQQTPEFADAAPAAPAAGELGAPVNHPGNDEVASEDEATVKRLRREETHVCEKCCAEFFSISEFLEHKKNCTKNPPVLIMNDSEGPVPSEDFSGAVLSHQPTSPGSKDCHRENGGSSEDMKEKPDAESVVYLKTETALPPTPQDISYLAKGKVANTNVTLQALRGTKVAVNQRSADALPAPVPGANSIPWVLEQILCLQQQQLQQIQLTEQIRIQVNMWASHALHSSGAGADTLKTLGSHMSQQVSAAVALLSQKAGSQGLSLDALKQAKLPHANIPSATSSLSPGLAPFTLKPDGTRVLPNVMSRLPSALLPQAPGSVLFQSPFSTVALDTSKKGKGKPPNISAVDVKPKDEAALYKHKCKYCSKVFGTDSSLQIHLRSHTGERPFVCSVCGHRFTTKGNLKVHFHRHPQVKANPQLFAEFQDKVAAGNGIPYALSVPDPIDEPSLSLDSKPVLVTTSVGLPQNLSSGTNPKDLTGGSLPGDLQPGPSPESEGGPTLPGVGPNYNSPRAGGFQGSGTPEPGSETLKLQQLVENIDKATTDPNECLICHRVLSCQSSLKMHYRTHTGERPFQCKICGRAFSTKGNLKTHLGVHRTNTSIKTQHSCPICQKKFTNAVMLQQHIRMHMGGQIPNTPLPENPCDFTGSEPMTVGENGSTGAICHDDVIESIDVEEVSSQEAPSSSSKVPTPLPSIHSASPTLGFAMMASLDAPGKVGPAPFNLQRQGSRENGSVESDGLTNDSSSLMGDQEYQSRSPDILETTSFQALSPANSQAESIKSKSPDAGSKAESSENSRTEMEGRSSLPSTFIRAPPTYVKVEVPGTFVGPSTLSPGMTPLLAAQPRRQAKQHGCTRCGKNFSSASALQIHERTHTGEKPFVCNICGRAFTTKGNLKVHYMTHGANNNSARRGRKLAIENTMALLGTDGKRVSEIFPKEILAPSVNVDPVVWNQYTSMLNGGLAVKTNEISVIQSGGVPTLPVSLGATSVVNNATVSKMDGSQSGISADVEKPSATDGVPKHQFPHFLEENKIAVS
Setting: 8-mer, flanks averaged, mean of replicates
Sequence	E-score
CTCAGGCC	-0.277
GGTGTGCA	-0.255
AGAAGACC	-0.167
AACCTGGA	-0.0392
CTGATTAA	0.161
GTGGGTCA	-0.149
GACGTTCC	-0.12
AATCGGCG	-0.257
GAACGTGA	0.00872
AAGTCACT	0.0853
CAACCGGG	-0.312
AGACTGCC	-0.151
CGAACCTC	-0.0204
GGCTATTA	0.203
ACGGTGCT	-0.199

Set 5 — technique: RNA Bind-n-Seq; molecule type: RNA; sample: in vitro; concentration: 365 nM; baseline: no-protein control; reading: higher = stronger binding
Target: RNA binding protein fox-1 homolog 2, RRM domain, GST-SBP tag (RBFOX2, Homo sapiens, UniProt O43251-10, residues 100-194)
Setting: natural RNA segment, single round, ends assumed
Constant ends, left off below: GGGAGUUCUACAGUCCGACGAUC … UGGAAUUCUCGGGUGCCAA
Target sequence (chain): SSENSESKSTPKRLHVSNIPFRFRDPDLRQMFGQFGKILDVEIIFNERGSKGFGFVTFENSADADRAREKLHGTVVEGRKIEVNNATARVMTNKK
Sequence	RBNS enrichment (R)
CACACACAUAACAAGCCACAUAUUCUGUAAAAGCCUGAGAGAUUCCAGCCCAGAGAGAUUUGAUGCUUUCUUCUGUCUUCUGUGUAUGCUCAGACACACACACACACACA	1.03
UAGGAAGCUUUGCUUACACUCUGGAGCCUUUACACUCUGAAGGAGAACUUCAGGGUUAUUCCAAGUACUUGUGUGACUUGGAAAAGUAGACUUGGGUUGUGGGAACAGUU	0.272
CAGACUUGAGUUGCCUGGCUACAUUGCUGAAAGCUUUGUAGCACUUGAAAAUUAAAUAUUGAUUUGUUUCACUAUUGAUGGGAAGAAGGGGAAUAAAGACUUGCAUAGGU	0.301
UUUUAUGUGAACUUUUUUAAUGUCUUUAAUUUGGAUUUUUUUUUUUUUUAGUAUUUUAACAUUUAUUUUAAUCCUGAAGACACUUUUUUGAUUGUGUUUCGUAAGAGACA	3.3
CUUAGCAGGAACCUUUGCUAGCCACCUAGUGAAUGCCUGUAACAGGGUCUCUGAGCUGACUCUGUAUUAAGGGAAAUUCUGCACACCACAGGUGAGGCUUUUUUCAGAUC	0.242
CUCCUGGCCGCAUGGGGUGAGCGCACAGGGGAGCCGCUGCUGCCAUCCCUUGCCUCCAUGUGUUUCUAUGCAGCCAUAGUUUGAGGACAGCCAGGCACCCACCUCAGGAC	0.558
GCUGAGAAUCAUGAAAGACAGAUCCUCCGCUAGCCUCUGUGGGUCAAGUUUCUGGACACCAAGUCUCUGGGAACUAGUGUUUGAUUUUAAAUGGCAUGUGGCCCUUCCUU	0.71
GCCCCCGCGUACAGGUCCAGCUGCGGAGGGAGAGAGCCUUGUGUGGGACUGUUAUUCCCAGGGCUCCAGCAAGCCACUCCCUGGGUGACCUCGGGCAAGGCCCUCUCUGG	4.96
GCAGGGCAGGGCUGCUUUAACAGGCAGGGGUGGCAGUAAGUCACAGCUGCUGCUGCUGUCGUCUGCCCGCCAUUCAGCUAACCGUUCUGUUGAGGUCCUGCCUUGUGCUU	0.35
UCGAUAAACUAACUACUGUAGAAGAAGUGAACACUUACCUGGAGGCUCACCUUGCAGAACCAGUGACAAUCUUAUGAGUAUAAUGAACACUCAGCCAGGCCUGUCAUGAU	0.357
AUGACACUAUAUAAAAUUUUCAUUUGAGAAUUUCUCAAUUGUAUCUAGUUAAAUAGCACAGUUUGGAAACUUGUCUGAGACUGACUUUAUCAAUAAUCUAACCGACAAAG	0.336
UCAGAACAAGGCAAAGCAAUAACUGGAAUUGUGACUCGAGGGAUAGACCCCUGGAUGUGACUCUUCUUUUUAAAAGGAAACUAUGUGGAGGACGAUGCAAAAACAUAUUU	0.409

Set 6 — technique: RNA Bind-n-Seq; molecule type: RNA; sample: in vitro; concentration: not given; setting: RNA with constant flanks, ends assumed; baseline: input RNA pool; reading: higher = stronger binding
Target: RING finger protein unkempt homolog, zinc fingers 1-6, GST-SBP tag (UNK, Homo sapiens, UniProt Q9C0B0, residues 30-357)
Chain of UniProt Q9C0B0 (30-357, looked up): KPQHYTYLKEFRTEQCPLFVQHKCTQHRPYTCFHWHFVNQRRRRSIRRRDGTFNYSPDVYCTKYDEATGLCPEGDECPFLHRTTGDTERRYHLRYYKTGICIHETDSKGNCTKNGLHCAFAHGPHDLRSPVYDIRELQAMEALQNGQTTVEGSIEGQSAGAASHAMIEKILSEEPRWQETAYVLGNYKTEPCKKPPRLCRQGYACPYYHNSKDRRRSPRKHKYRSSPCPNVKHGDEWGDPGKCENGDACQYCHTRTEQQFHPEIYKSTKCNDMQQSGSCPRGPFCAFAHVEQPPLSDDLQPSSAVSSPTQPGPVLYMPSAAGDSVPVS
Constant ends, left off below: GGGAGUUCUACAGUCCGACGAUC … CAACAGAGGAUUGAGCAUCA
Sequence	bound/input enrichment
AUUUAUCUGUAUGAAAUUCCAGUAGUUAAUUUGAACAUUUAUUUAUAUGACGUUUGUAUUUUCCGGUCUUUAAUACAGUGUUUCUACCUCUCAUUUGUAACUGCAUGCAUUAUUCUUGAA	6.67 ratio
ACAAAGACAGUCAUUAAAGAAGGUGAAGAACAGCUGCAGACUCAGCACCAGAAAACGUUCACCGGGAAAAUUCCAAUUAUGCUGCGCUCCACCUACUGCCUGUUAAAUGGCUUAACAGAU	0.143 ratio
CCAAACCGAUUUGAUAUGAACGUGUGUUCUCGAUUCGUGAAGUCCUUAAAUGAAGAGGACCGUAAAAAUAUUCAAGAUCAAGUUAACUCUGACCUGGAGGUGGCAUCUGUCUUAUUUAAA	0.161 ratio
AGUACACAAACUAAUGGACCUUCUGUUCCUAGUGAAGAAGAAAUUGUUCAGCCACUGGACCGCACAAGAGUGGCUUCUUACAGUGGCACUGUUACUCAAGCCACAUUCACCAGGACUUAC	0.163 ratio
UCCAGGUCUCUCCAAACUGACUAUAUAUUUAUUUGUUAUUUUAAAAAUACAACUAUAUUUUGGGCCGUUUUUUUUUUUUUUUUUUUGAUAAGUUGGUGUAAGGCUAUGUGACUUGAUCAA	1.44 ratio
AGCAGAUGCCCUCUUGCAGGGUGGAUGAGUCAGGCAGGCAGAACCUCCUUAAGUGGUCCACUCCGUGUUACCAGCAGACUGCAGACACUGCAGAGCAGGAACCUCACUCAGUACCUGUCU	0.0485 ratio
UCAGGAACCCAGACAAACAUGAAUGUAAAUGAAGUCAUUAGCAACAGAGCAAUUGAAAUGUCCGGAGGUGAACUUGGCAGCAAGAAGCCUGUGCACCCCAAUGAUCAUGUUAACAAAAGC	0.23 ratio
CUUUCUUUUUGGCCGUCUUUAAAAAAAUUUUUUUUUUUAAUCUAUAAAAUAGACAAGAGCCCGUUCUACAAUGUCCAAGUCAUUCCAGCAGUCAUCUCUCAGUAGGGACUCACAGGGUCA	0.354 ratio
AUGAUGAAAGGCGAGUUUUAUGUCAUUGAAUAUGCUGCUUGUGAUGCCACUUACAAUGAAACCGUCACAUUUGAACGACUUCGGCCUGUCAAUCAAAAUAAAACUGUCAAAAAAAAUACC	0.269 ratio
GAGAUGCAUCCAGUGAUGUGAGGGGGACCUCUGGGGACUGUCAUUCUCAGUAUCAUGCCGGAAUUUAAAAAGCCAAAAUACUAAUUCUUUCUUUGUAGUGUGUAAGGGAGUGUUUUUAAA	0.5 ratio
GCACCCAGGUCCUAUAGAAUAGCACCCAGGCCAUAUAGGUUAGCACCUAGACCCCUGAUGUCCGCAUCUAGACGUUCUAUGAUGAUGUCCUAUGCUGCAGAACGUUCCAUGAUGUCAUCU	0.332 ratio

For quick reference, copied from above (set 1):
Sequence	fluorescence intensity
CTTTCCCGATCTTTTCACGTGGGGTTAGCACATTTG	16600 a.u.
CGTCCTAGTGATTTTCACGTGCCGTCCATGAGGAAG	15100 a.u.
GTCTTGTCTCATTGTCACTACACTTTCCCCACTTCA	4050 a.u.
CGGGGTTAAGTTTGTGACGTGGGTGGCTTGCAGCAG	6090 a.u.
CGTCCTAGTGATTGGCTAGTGGGTGCCATGAGGAAG	5870 a.u.
CTTCTGTAAATTTGTCACCCAACTTGACGCGCCCCG	3110 a.u.
TTTGGTCTTCGATCCCACGTGGCCAACAATATCTTC	17000 a.u.
CGGGGTTAAGTTTGGATTGTGGGTGGCTTGCAGCAG	4440 a.u.
CGGGGTTAAGTTTTTCACGTGATTTGCTTGCAGCAG	10400 a.u.
AGCAGCAGAGTCATCTTCGTGCTAAACAGTTGGTAC	7010 a.u.
CTATTGGTATATGTGTCCGTGACAAAGTAGTTAGTG	5740 a.u.
